{"data": "Measurements from different studies", "note": "Parts stem from different laboratories: compare values within a part only. Substitutions count along the parent as printed."}
{"data": "Set 1", "target": "Ras GTPase-activating protein-binding protein 1, C-terminal RGG region (G3BP1, Homo sapiens, UniProt Q13283)", "method": "RNA Bind-n-Seq", "molecule type": "RNA", "medium": "in vitro", "tested at": "1 µM", "setting": "whole 134-nt RNA, ends assumed", "together with": "150 mM KCl", "relative to": "input library", "reading": "higher = stronger binding", "constant ends, left off below": "GGGAGUUCUACAGUCCGACGAUC … UGGAAUUCUCGGGUGUCAAGG", "UniProt Q13283, sequence (whole entry, looked up)": "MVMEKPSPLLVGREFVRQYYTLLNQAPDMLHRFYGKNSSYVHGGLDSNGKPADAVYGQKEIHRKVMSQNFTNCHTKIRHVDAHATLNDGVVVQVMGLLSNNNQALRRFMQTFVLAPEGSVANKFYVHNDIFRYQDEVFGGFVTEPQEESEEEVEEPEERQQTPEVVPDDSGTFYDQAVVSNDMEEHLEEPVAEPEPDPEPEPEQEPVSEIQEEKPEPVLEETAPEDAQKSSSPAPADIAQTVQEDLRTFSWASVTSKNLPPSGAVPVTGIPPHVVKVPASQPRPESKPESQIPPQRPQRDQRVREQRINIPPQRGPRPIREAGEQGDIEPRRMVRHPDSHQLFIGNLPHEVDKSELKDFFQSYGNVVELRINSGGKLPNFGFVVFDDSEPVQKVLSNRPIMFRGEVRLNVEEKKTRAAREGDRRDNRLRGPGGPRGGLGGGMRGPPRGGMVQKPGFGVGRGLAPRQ"}
{"Strand": "GCAGGAUGUAAAAACAAAUGGAAAUGCUUCGGAUAGUGGCAGGGGUGGGGGUUGCUAAGGAAAGGGUGGGAUGGGAGUGGGUAAAGAGUU", "log2 enrichment": 1.94}
{"Strand": "CAAGUCCUGUGCUACACAUCGUAUGUACCGAAUCGGCCCGGGGCCCGGGGCCCGGGAAAGUAUUAUGUUACGCCGUUCGGAUCUGCACUU", "log2 enrichment": -1.81}
{"Strand": "UCCUCAAGUCCUGUGCUACACAUCGUAUGUACCGAAUCGGAAGGAAGGAAGGAAAGUAUUAUGUUACGCCGUUCGGAUCUGCACUUCCAG", "log2 enrichment": -0.684}
{"Strand": "AGUCCUGUGCUACACAUCGUAUGUACCGAAUCGGGGAGGGGUGGGGAAAAAAAGGGGAAAGUAUUAUGUUACGCCGUUCGGAUCUGCACU", "log2 enrichment": 1.44}
{"Strand": "GUCCUGUGCUACACAUCGUAUGUACCGAAUCGGGCCCCCGGGCCCCCGGCCCCCGGGGAAAGUAUUAUGUUACGCCGUUCGGAUCUGCAC", "log2 enrichment": -1.48}
{"Strand": "CACAGACAAUACGCACCCACACAGACACAGAGGGAAGGGGUUGGGAUGGGGACAGGGUGCACAGCAGGGCGGGGUAGGACCCCAGCCCCU", "log2 enrichment": -0.191}
{"Strand": "CCUCAAGUCCUGUGCUACACAUCGUAUGUACCGAAUCGGGGAGGGAGGGGAGGAAAGUAUUAUGUUACGCCGUUCGGAUCUGCACUUCCA", "log2 enrichment": 0.851}
{"Strand": "UUGCGAAAAGGACCAAUUCCAGUGCCGGAACGAGCGCUGCAUCCCCUCUGUGUGGAGAUGCGACGAGGACGAUGACUGCUUAGACCACAG", "log2 enrichment": 0.511}
{"Strand": "CCUGUGCUACACAUCGUAUGUACCGAAUCGGGGAAAAAAAGGGGAAAAAAAGGGGAGGGGAAAGUAUUAUGUUACGCCGUUCGGAUCUGC", "log2 enrichment": 0.44}
{"data": "Set 2", "target": "RING finger protein unkempt homolog, zinc fingers 1-6, GST-SBP tag (UNK, Homo sapiens, UniProt Q9C0B0, residues 30-357)", "method": "RNA Bind-n-Seq", "molecule type": "RNA", "medium": "in vitro", "tested at": "not given", "setting": "RNA with constant flanks, human and mouse sites, ends assumed", "relative to": "input RNA pool", "reading": "higher = stronger binding", "constant ends, left off below": "GGGAGUUCUACAGUCCGACGAUC … CAACAGAGGAUUGAGCAUCA", "UniProt Q9C0B0, sequence (30-357, looked up)": "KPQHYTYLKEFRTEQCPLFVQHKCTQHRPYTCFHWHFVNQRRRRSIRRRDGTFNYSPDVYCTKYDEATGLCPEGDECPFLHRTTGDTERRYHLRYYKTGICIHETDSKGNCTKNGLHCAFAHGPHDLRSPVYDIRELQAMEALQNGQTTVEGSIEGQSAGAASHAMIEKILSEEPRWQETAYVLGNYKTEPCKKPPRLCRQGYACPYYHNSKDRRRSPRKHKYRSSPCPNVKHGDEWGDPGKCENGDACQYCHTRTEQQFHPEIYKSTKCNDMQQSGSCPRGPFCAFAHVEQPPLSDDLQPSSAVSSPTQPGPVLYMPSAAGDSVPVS"}
{"Strand": "AUUAAAAUAUUACUACUGGGUUAUUAACCCUGCUGACAGCAGUGGCAUUGCACCUAAAGGACUAGGUAAGCUCCUCUGCGGCCUCAUUUCCAUUUUCCUGUGUUUAGAUCCGGGGUGCAG", "bound/input enrichment [ratio]": 0.96}
{"Strand": "UGUAACUUAUCUGUAAAAGGUUCCCCCCCCCUACUGUCAAAAAAUAUGCAUGUAUAGUAAUUAGGACUUCAUUCCUCCAUGUUUUCUUCCCUUAUCUUACUGUCAUUGUCCUUAAACCUU", "bound/input enrichment [ratio]": 2.84}
{"Strand": "AAACCAGGAAGAAAAGGUAUUUCUUUAAAUCCAGAACAAUGGAGCCAGCUGAAGGAACAGAUUUCUGACAUUGAUGAUGCAGUAAGAAAACUGUAAAAUUCGAGCCAUAUAAAUAAAACC", "bound/input enrichment [ratio]": 0.205}
{"Strand": "CCUACUCCCCAUCACCCAAUCCCUAUCAGACGGCCAUGUAUCCAAUCAGAAGUGCCUAUCCCCAGCAGAAUCUGUAUGCCCAGGGAGCCUACUACACACAACCUGUGUAUGCUGCCCAGC", "bound/input enrichment [ratio]": 0.223}
{"Strand": "GCCGGCCUCCCCUGUUCCUUGUGUGAGUGAUGUCGUGAAUACACCGUUGUCCAUAAACAUUCCACAGUUCUAUUUCCCUGAAGGACUCCCAGACACCUGCAGUAACCAUGAACAGAUCCU", "bound/input enrichment [ratio]": 0.71}
{"Strand": "CUCACAAACAGCCAUCUGGAGAAAAGGAAAUGCGACGAGUAUAUUCCAGGAACAACCUCCCUGGGAAUGUCUGUCUUUAACCUGAGCAACGCCAUCAUGGGCAGUGGAAUCUUGGGCCUU", "bound/input enrichment [ratio]": 0.139}
{"Strand": "UCUAUAGCUACCCUACUUCUUCGAAUAGAGAAAGAGGAAUUGGAUAUGAAAGGAAGUGGUUUCUAUGUUUCUCUGGAGUGGGUCACUAUCAGUAAGAAAAAUCAAGAUAAUAAAAAAUAU", "bound/input enrichment [ratio]": 0.357}
{"Strand": "GUAAAAGAAGAACAACUUAAAAAUUCUGCAGAGGAAGAAGUACUAUCAUCAGAAAAACAAUUAAUUAAAAUGGAAAAGAAGGAAGAAGAAGAAAAUGGAGAAAGACCUAGAAAGAAAAAG", "bound/input enrichment [ratio]": 2.15}
{"data": "Set 3", "target": "CCNE2, cyclin fold, Cln2 fusion (human)", "method": "yeast growth competition, sequencing", "medium": "yeast", "setting": "weak parent motif", "relative to": "not given", "reading": "higher = stronger binding", "starting sequence": "MICAL3 docking peptide (human); LQLRRQLSFSEDS; partner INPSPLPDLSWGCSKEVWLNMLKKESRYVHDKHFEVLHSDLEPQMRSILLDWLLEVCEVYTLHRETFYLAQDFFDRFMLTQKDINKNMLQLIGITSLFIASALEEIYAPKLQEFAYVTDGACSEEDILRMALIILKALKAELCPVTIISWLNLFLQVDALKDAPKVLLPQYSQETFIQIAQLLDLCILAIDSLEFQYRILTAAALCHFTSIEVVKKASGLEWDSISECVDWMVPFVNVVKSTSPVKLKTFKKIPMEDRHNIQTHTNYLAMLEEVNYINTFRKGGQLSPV"}
{"Change": "D12W", "normalised enrichment score": 0.702}
{"Change": "Q6C", "normalised enrichment score": 0.538}
{"Change": "L7S", "normalised enrichment score": -0.223}
{"Change": "R5Q", "normalised enrichment score": -0.211}
{"Change": "S8H", "normalised enrichment score": 0.721}
{"Change": "R4Y", "normalised enrichment score": 0.302}
{"Change": "L3D", "normalised enrichment score": 0.0338}
{"Change": "S10H", "normalised enrichment score": 0.0902}
{"Change": "Q2N", "normalised enrichment score": 0.123}
{"Change": "E11R", "normalised enrichment score": 0.618}
{"Change": "S8D", "normalised enrichment score": 0.172}
{"Change": "R4E", "normalised enrichment score": -0.422}
{"Change": "L3F", "normalised enrichment score": 1.07}
{"Change": "D12M", "normalised enrichment score": 0.542}
{"Change": "L7T", "normalised enrichment score": 0.144}
{"Change": "L3N", "normalised enrichment score": 0.0326}
{"Change": "D12Y", "normalised enrichment score": 0.347}
{"Change": "S10M", "normalised enrichment score": 0.593}
{"Change": "L7G", "normalised enrichment score": -0.159}
{"Change": "S8M", "normalised enrichment score": 0.41}
{"Change": "D12A", "normalised enrichment score": 0.345}
{"Change": "Q6M", "normalised enrichment score": 0.638}
{"Change": "R5F", "normalised enrichment score": 0.111}
{"Change": "F9W", "normalised enrichment score": 0.0269}
{"Change": "S8E", "normalised enrichment score": 0.123}
{"data": "Set 4", "target": "ABI1, truncated, D143A, DHFR fusion (Arabidopsis thaliana)", "method": "DHFR PCA, deep sequencing", "medium": "yeast", "setting": "methotrexate growth selection, single substitutions", "together with": "(+)-ABA 17 µM", "relative to": "wild-type fitted maximum", "reading": "higher = stronger binding", "starting sequence": "PYL1, truncated, DHFR fusion (Arabidopsis thaliana); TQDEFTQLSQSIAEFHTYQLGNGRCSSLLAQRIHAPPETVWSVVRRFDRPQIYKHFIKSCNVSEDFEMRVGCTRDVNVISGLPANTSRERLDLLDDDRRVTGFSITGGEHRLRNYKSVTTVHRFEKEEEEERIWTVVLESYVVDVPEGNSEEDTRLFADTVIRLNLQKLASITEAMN; partner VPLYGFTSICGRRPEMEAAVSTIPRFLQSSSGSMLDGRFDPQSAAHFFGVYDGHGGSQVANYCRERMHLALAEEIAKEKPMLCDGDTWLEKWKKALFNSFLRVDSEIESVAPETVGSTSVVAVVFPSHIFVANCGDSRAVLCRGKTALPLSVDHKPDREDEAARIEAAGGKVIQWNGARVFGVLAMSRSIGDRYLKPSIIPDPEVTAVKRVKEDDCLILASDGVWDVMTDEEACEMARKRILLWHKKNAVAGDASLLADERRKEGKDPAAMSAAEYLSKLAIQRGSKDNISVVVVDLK"}
{"Change": "N61L", "relative binding score [%]": 82.6}
{"Change": "F56T", "relative binding score [%]": 2.11}
{"Change": "D3K", "relative binding score [%]": 73.2}
{"Change": "D159W", "relative binding score [%]": -4.29}
{"Change": "I133R", "relative binding score [%]": 81.3}
{"Change": "A35F", "relative binding score [%]": 0.851}
{"Change": "V43M", "relative binding score [%]": 66.3}
{"Change": "G23C", "relative binding score [%]": 46.9}
{"Change": "H16E", "relative binding score [%]": -0.821}
{"Change": "K58G", "relative binding score [%]": 48.2}
{"Change": "V161D", "relative binding score [%]": -3.96}
{"Change": "W41T", "relative binding score [%]": 5.26}
{"Change": "R90G", "relative binding score [%]": -5.01}
{"Change": "L20V", "relative binding score [%]": 90.1}
{"Change": "S26L", "relative binding score [%]": 4.16}
{"Change": "V40M", "relative binding score [%]": 0.0294}
{"Change": "E129K", "relative binding score [%]": 87.9}
{"Change": "R113S", "relative binding score [%]": 88.7}
{"note": "Excerpt of the above (set 3):"}
{"Change": "R4Y", "normalised enrichment score": 0.302}
{"Change": "L3D", "normalised enrichment score": 0.0338}
{"Change": "S10H", "normalised enrichment score": 0.0902}
